Measurements from different studies.
Each line is one published result; not all experiments were run side by side.
Effect on: enzyme activity
Mode: inhibitor
EGFR: Epidermal growth factor receptor (EGFR, Homo sapiens, UniProt P00533)
EGFR C797S/L858R/T790M: Epidermal growth factor receptor (EGFR, Homo sapiens, UniProt P00533, C797S/L858R/T790M)
EGFR L858R/T790M: Epidermal growth factor receptor (EGFR, Homo sapiens, UniProt P00533, L858R/T790M)

C=CC(=O)Nc1cc(-c2nn(C3CCN(CCNC(=O)[C@H](C)CCC45CC6CC(CC(C6)C4)C5)CC3)c3ncnc(N)c23)ccc1Oc1ccccc1 gave an IC50 of over 10000 nM (EGFR; FRET).
CCCCCCCCCCCC[N+]1(C)CCOCC1.O=C([O-])c1cc2ccccc2cc1O has an IC50 of 7560 nM (EGFR; ELISA).
The IC50 of CCN(CC)CC(=O)Nc1cccc(-n2cc(-c3ccc4ccc(-c5cn(-c6cccc(NC(=O)CN(CC)CC)c6)nn5)cc4c3)nn2)c1 is reported as over 10000 nM (EGFR).
COCC1CN(C2CCN(c3cc(OC)c(Nc4ncc(Br)c(Nc5ccc6c(c5P(C)(C)=O)OCCO6)n4)cc3C)CC2)C1 has an IC50 of 0.11 nM (EGFR C797S/L858R/T790M; TR-FRET).
C=CC(=O)Nc1cc(Nc2nccc(Nc3cc(Cl)c(F)cc3C(C)(C)O)n2)c(OC)cc1N1CC[C@H](N(C)C)C1 gave an IC50 of 1 nM (EGFR L858R/T790M).
COc1cc(N2CCOCC2)ccc1Nc1ncc(Cl)c(Nc2ccccc2NS(C)(=O)=O)n1 has an IC50 of 2.92 nM (EGFR C797S/L858R/T790M; TR-FRET).
C=CC(=O)Nc1cc(Nc2ncnc(Nc3ccccc3C(C)(C)O)n2)c(OC)cc1N(C)CCN(C)C has an IC50 of 0.32 nM (EGFR L858R/T790M).
Cc1ccc2c(c1)nc(NC(=O)c1cccc(C(F)(F)F)c1)n2[C@H]1CC[C@H](N)CC1 has an IC50 of 300 nM (EGFR; TR-FRET).
With C=CC(=O)Nc1cc(Nc2ncnc(Nc3cc(Cl)c(F)cc3C(C)(C)O)n2)c(OC)cc1N1CCC(N(C)C)C1 (stereo not shown) the IC50 was 0.6 nM (EGFR L858R/T790M).
The IC50 of Cc1nn(-c2cccc(N)c2)c(=O)c2cnc(Nc3ccc(N4CCNCC4)cc3)nc12 is reported as over 10000 nM (EGFR L858R/T790M).

A few entries again:
COCC1CN(C2CCN(c3cc(OC)c(Nc4ncc(Br)c(Nc5ccc6c(c5P(C)(C)=O)OCCO6)n4)cc3C)CC2)C1 has an IC50 of 0.11 nM (EGFR C797S/L858R/T790M; TR-FRET).
